Assay results collected from several papers.
Each numbered part is a random draw from the data of one study; scales do not carry over between parts.

Sample 1 — method: protein-binding microarray; molecule type: double-stranded DNA, one strand shown; matrix: in vitro; tested at: 250 nM; notes: 60-bp whole probe; together with: salmon DNA 0.4 mg/ml; baseline: random background probes; direction: higher = stronger binding; endpoint: log fluorescence; all sequences stand within: GCCTAGCAC … GTCTTGATTCGCTTGACGCTGCTG
Target: Interferon regulatory factor 7, full length, phosphomimetic (IRF7, Homo sapiens, UniProt Q92985, residues 1-503, S101K/S471D/S472D/S475D/S476D/S477D/S483D/S484D/S487D)
Construct (chain): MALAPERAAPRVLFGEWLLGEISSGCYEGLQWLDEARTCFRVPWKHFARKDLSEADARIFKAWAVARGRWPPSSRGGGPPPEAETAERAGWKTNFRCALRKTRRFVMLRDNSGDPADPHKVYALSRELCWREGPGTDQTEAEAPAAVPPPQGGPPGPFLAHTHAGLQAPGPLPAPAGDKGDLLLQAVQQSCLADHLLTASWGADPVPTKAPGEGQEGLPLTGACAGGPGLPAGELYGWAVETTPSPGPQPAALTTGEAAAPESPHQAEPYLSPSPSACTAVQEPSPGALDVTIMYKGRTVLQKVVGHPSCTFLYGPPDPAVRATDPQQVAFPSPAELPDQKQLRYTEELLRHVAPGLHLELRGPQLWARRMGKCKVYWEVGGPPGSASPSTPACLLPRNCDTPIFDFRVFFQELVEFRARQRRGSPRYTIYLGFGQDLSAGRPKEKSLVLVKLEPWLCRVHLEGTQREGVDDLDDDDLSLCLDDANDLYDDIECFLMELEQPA
AGTTCTCTGAAGACTCTCTTGGTGCTA: 0.525 z-score
GACGGACTGCTTTGCCTGACGTGCTAG: -0.242 z-score
TTAGAACTGGGGTATCGACTAGTGCTA: -0.337 z-score
TTTAGAAAGATTAGGGGTGCGTGCTAG: -0.671 z-score
GACGAACTGGGGGTTCGAGACGTGCTA: -0.00615 z-score
GAAGGTCTCCTTATCCTGACGTGCTAG: 0.151 z-score
GACGGGCTCCTTCTCCTGACGTGCTAG: 0.0356 z-score
GACGGTTTCGACTATCCGGACGTGCTA: 6.41 z-score
TCAGGTTTCCAAATTGTACTGTGCTAG: 2.22 z-score
TCACCTTTGCCTCATCTTACTGTGCTA: 0.623 z-score
GACGGTTTCGACACTGGGGCCGTGCTA: 3.66 z-score
TTAGTTTTCAATTTTTGCATGTGCTAG: 0.846 z-score
GGTTTTCTCTATTGCTTTCTGTGCTAG: 3.11 z-score
TTAGGCCTGGGACTGGGTTAGTGCTAG: -0.265 z-score
TTAGGTCTCCGACTGGGTTAGTGCTAG: -0.38 z-score
TATTTTGGAAACTCACAACAGTGCTAG: 1.79 z-score
GACGGTATCGACTTTCGGGACGTGCTA: 1.42 z-score
CTTCTCCTCCAGGTTCTCTGAGTGCTA: 0.227 z-score
CTAGGTATCGGTATCGGTTAGTGCTAG: 3.3 z-score
TTTGGACTGCTTCTCCTTTAGTGCTAG: 0.00118 z-score

Sample 2 — method: RNA Bind-n-Seq; molecule type: RNA; matrix: in vitro; tested at: 1 µM; notes: whole 134-nt RNA, ends assumed; together with: 150 mM KCl; baseline: input library; direction: higher = stronger binding; endpoint: log2 enrichment
Target: Ras GTPase-activating protein-binding protein 1, RRM domain (G3BP1, Homo sapiens, UniProt Q13283)
Sequence of UniProt Q13283 (whole entry, looked up): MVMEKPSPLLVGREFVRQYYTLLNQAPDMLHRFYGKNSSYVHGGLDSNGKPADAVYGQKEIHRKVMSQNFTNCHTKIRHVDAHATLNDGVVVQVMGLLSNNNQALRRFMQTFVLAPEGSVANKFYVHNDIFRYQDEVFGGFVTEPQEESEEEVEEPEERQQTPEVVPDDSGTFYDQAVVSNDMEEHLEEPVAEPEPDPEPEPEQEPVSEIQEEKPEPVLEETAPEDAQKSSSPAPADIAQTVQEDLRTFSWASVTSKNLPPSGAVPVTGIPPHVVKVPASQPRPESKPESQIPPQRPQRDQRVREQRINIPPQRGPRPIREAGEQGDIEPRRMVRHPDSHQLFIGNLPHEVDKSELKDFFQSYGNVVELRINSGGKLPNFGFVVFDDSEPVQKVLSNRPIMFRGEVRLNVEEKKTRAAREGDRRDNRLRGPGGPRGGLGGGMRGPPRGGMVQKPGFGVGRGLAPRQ
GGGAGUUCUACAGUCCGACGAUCGUCCUGUGCUACACAUCGUAUGUACCGAAUCGGGAAAAAGGGGAAAAAGGGAAAAAGGAAAGUAUUAUGUUACGCCGUUCGGAUCUGCACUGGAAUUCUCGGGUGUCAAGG: 0.00124
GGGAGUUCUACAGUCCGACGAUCGGCAGUAGCAGCAGCGCCGGGUCCCGUGCGGAGGUGCUCCUCGCAGAGUUGUUUCUCGAGCAGCGGCAGUUCUCACUACAGCGCCAGGACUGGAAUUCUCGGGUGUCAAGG: -0.546
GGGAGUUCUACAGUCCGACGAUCCCUCAAGUCCUGUGCUACACAUCGUAUGUACCGAAUCGGUUUUUGGAGGAGGAAAGUAUUAUGUUACGCCGUUCGGAUCUGCACUUCCAGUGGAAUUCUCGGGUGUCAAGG: -0.172
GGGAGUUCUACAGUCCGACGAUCGUCCUGUGCUACACAUCGUAUGUACCGAAUCGGUUUUUUUGGAAAAAAAGGAAAAAGGAAAGUAUUAUGUUACGCCGUUCGGAUCUGCACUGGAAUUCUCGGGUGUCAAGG: -0.339
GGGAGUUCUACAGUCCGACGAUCUCUUCCGUGACAUUUCAUUUGGGGAACAACUUUUCUCUUUACAGGCCCGAGUGACUAAGGGAUGUACCAUUGUUAAGCCUUUCAACCUGUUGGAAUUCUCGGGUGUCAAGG: 0.0272
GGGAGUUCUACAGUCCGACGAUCAAGUCCUGUGCUACACAUCGUAUGUACCGAAUCGGAAAAGGGGAAAAGGGAAAAGGGAAAGUAUUAUGUUACGCCGUUCGGAUCUGCACUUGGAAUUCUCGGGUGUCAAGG: 0.152
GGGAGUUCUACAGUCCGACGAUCUACUAUCAAACAAUCGGAAACCACGCGUCCUACUACAAAGAUGCUCUGCGGUUUUUGGGCUGUGUUGACAUCAAGGAUCUACCAGGUAACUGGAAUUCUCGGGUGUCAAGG: -0.329
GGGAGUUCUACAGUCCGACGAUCUGUACAAACACUUUCCCAUCCCCCUCAUUAACCGGCUGGAGAAGCACUAUCUGGAUAUCAACACGGUGCUGGAGAAAUGGCAGAAGAGCAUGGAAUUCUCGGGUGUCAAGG: -0.111
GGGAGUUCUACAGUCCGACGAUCCCUCAAGUCCUGUGCUACACAUCGUAUGUACCGAAUCGGUUUGGAAAGGAGGAAAGUAUUAUGUUACGCCGUUCGGAUCUGCACUUCCAGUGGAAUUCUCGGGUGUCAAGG: -0.112
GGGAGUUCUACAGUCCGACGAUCUGGGAGGUGGAUUUUGUUUAAUUUUUUAGCUCAUUUCCAGGGGUGGGAAUUUUUUUUUAAUAUGUGUCAUGAAUAAAGUUGUUUUUGAAAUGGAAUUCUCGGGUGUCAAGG: 1.08
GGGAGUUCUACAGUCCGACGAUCUAGCCAAGAGUCGAAGCUAAACCAGAAGUUCAAUCUCAGCCACCUCGUGUGCGUGAACAACGACCUAGAGAACGACCUGGUUUUCCUCCUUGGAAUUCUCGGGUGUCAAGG: -0.12
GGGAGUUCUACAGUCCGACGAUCUCCUGUGCUACACAUCGUAUGUACCGAAUCGGAAAAAAGGGGAAAAAAGGGAAAAAAGGAAAGUAUUAUGUUACGCCGUUCGGAUCUGCAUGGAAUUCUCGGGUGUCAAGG: 0.113
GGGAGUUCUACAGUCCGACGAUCGCAGGAAGUAAAAACAAAUGGAAAUGCUUCGGAUGGUGGCAGGGGUGGGGGUUGCUAAGGAAAGGGUGGGAUGGGAGUGGGUAAAGAGUUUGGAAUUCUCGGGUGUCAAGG: 1.01
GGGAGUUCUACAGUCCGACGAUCUCAAGUCCUGUGCUACACAUCGUAUGUACCGAAUCGGGGAAGGGAAGGGAAGGGAAAGUAUUAUGUUACGCCGUUCGGAUCUGCACUUCCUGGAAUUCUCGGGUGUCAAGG: 1.07

Sample 3 — method: competition protein-binding microarray; molecule type: double-stranded DNA, one strand shown; matrix: in vitro; tested at: 2 µM; together with: Cbf1 competitor, 0.05 µM; direction: higher = stronger binding; endpoint: fluorescence intensity
Target: Phosphate system positive regulatory protein PHO4, full length, GST-tagged (PHO4, Saccharomyces cerevisiae, UniProt P07270, residues 1-312)
Notes: whole 60-bp probe, lowest competitor level
Target sequence (chain): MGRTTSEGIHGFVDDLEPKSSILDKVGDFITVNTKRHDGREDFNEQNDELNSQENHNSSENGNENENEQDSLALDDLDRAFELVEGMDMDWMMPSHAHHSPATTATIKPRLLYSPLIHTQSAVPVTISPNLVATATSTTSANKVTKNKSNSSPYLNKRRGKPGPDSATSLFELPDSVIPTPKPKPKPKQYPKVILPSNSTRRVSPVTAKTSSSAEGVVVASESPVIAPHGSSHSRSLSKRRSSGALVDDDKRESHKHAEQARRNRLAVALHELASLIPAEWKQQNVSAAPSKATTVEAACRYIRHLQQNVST
GTCTTGTCTCATTGGTGTGTGGGTGTCCCCACTTCAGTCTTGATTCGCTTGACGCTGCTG: 6470 a.u.
TTGAACAACCATCCCAACGTGAAGAAGCCAAGAAGGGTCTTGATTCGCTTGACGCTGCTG: 7180 a.u.
CGTCCTAGCGATTGACACGTGTTTTCCATGAGGAAGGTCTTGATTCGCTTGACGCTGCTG: 16900 a.u.
GTCTCCACAGCTTTTGACATGACAATCTCGGCGCAAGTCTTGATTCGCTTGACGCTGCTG: 3790 a.u.
CTAACGAAGGTTTGGGGGGTGGGTGACAAGCCAAGTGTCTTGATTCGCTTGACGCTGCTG: 5430 a.u.
AAAGAGCATTCGAGTCACGTGTATACATTCAAGTGAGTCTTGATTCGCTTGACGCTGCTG: 14000 a.u.
CTTTCCCGATCTTGTCACAAAACTTTAGCACATTTGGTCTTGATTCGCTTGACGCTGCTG: 3540 a.u.
CATCCGCACATCGCGCATGTGTGGGTGTATATGCCCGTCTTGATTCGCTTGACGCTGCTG: 12700 a.u.
CTAACGAAGGTTTGTCACGCTACTTACAAGCCAAGTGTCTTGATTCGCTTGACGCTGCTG: 5300 a.u.
CTAACGAAGGTTTGTCACGATACTTACAAGCCAAGTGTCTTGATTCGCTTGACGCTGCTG: 5530 a.u.
AAATTACTAAGTTTTCACGTGAAGTACCCCGTATGAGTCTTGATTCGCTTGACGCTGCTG: 9090 a.u.
GTCTTGTCTCATTTTCACGTGTAATTCCCCACTTCAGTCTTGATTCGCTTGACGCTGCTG: 10900 a.u.
AAAGCGGTAATTTGAGAGGTGGGTGCAGATATCTATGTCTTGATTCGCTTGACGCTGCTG: 4220 a.u.
CATACCCAACCTTGCAACGTGGGTGAAGATATTTGTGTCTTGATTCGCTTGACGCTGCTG: 15400 a.u.
AAAGCGGTAATTTGTTAGGTGGGTGCAGATATCTATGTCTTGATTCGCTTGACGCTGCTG: 4510 a.u.
CGTCCTAGCGATTGAAAGGTGGGTGCCATGAGGAAGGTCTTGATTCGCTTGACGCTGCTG: 6190 a.u.
CTTCTGTAAATTTGCCATGTGGGTGGACGCGCCCCGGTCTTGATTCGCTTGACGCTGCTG: 10800 a.u.
CGTCCTAGTGATTGTCACGAAACTTCCATGAGGAAGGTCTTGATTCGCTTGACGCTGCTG: 4820 a.u.
CTAACGAAGGTTTGTAAAGTGGGTGACAAGCCAAGTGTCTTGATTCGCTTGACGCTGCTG: 3560 a.u.
AAATTACTAAGTTGAAGGGTGGGTGACGCCGTATGAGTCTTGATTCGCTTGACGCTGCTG: 4020 a.u.
GTCTTGTCTCATTGGATTGTGGGTGTCCCCACTTCAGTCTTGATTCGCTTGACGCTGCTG: 5860 a.u.
GGGTACTGGTGCCGTCACGTGTGGACCATCTAATTCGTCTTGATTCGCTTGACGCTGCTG: 13700 a.u.
CTTTCCCGATCTTGACTTGTGGGTGTAGCACATTTGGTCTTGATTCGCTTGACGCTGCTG: 4870 a.u.
ATGCTATGCCTATTGTTTATTTGGATTTTCCCATATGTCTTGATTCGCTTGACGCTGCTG: 4230 a.u.
ACCGTTGGTAGAAGCATCGTGGGTAGAAATGGTGGAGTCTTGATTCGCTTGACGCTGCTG: 12600 a.u.

Sample 4 — method: aptamer microarray, sandwich; molecule type: DNA with 2'F-ANA; matrix: in vitro; tested at: 200 nM; together with: Cy3 exosite-II aptamer, 400 nM; direction: higher = stronger binding; endpoint: mean fluorescence intensity; oligonucleotide: GGTTGGTGTGGTTGG
Target: Prothrombin, mature alpha-thrombin (F2, Homo sapiens, UniProt P00734)
Notes: whole 15-mer aptamer, many near background
2'F-ANA at 1 2 3 5 6 7 8 11 14 15: 50.6 a.u.
2'F-ANA at 5 7 8 10: 48.1 a.u.
2'F-ANA at 3 5 7 8 10 11 12 14: 54.1 a.u.
2'F-ANA at 3 6 7 9 11 12 15: 866 a.u.
2'F-ANA at 1 2 4 5 8 9 12 13: 76.9 a.u.
2'F-ANA at 2 3 4 7 8 9 14 15: 309 a.u.
2'F-ANA at 1 2 6 8 9 11 13 14 15: 50.7 a.u.
2'F-ANA at 2 5 6 11 12 14: 50 a.u.
2'F-ANA at 2 6 10 11 12: 152 a.u.
2'F-ANA at 1 2 5 7 9 10 11 12 15: 117 a.u.
2'F-ANA at 2 4 5 8 10 11 14: 79.2 a.u.
2'F-ANA at 1 3 4 6 9 10: 64.4 a.u.
2'F-ANA at 2 6 8 9 10: 109 a.u.
2'F-ANA at 3 4 5 6 7 8 10 12 13: 50 a.u.
2'F-ANA at 3 5 6 9 12 13 14 15: 52.5 a.u.
2'F-ANA at 2 3 5 8 11 12 13: 169 a.u.
2'F-ANA at 7 8 9 12 14 15: 274 a.u.
2'F-ANA at 2 3 5 7 8 11 12 13: 165 a.u.
2'F-ANA at 1 2 5 6 7 10 12 13 14 15: 48 a.u.
2'F-ANA at 1 2 3 5 8 9 13 14 15: 47.7 a.u.
2'F-ANA at 6: 578 a.u.

Some of these lines once more (sample 4):
2'F-ANA at 1 2 5 6 7 10 12 13 14 15: 48 a.u.
2'F-ANA at 5 7 8 10: 48.1 a.u.
2'F-ANA at 3 4 5 6 7 8 10 12 13: 50 a.u.
2'F-ANA at 2 6 10 11 12: 152 a.u.
2'F-ANA at 7 8 9 12 14 15: 274 a.u.
